# Experimental data pooled from the literature.
# Each line is one published result; not all experiments were run side by side. Values joined by “and” are separate records of one study, mostly repeats; a detail may differ. ± gives the spread as reported.
SMILES,assay,test system,setting,measurement,value
O=C1Nc2cc3[nH]nc(-c4ccncc4)c3cc2CN1Cc1ccccc1,CTCAE v4.03,advanced solid tumour patients,"intravenous, 7.2 mg/kg",patients with macular oedema,33%
COc1ccnc(C(=O)N[C@H]2COC(=O)[C@H](Cc3ccccc3)[C@@H](OC(=O)C(C)C)[C@H](C)OC2=O)c1OCOC(=O)C(C)C,,"rats, mice and rabbits, urine","oral, dose not given",excretion,12 to 42%
CC(C)[C@@H]1CC[C@@H](C)C[C@@H]1O,acute oral toxicity OECD,"Swiss albino mice, serum","oral, 1000 mg/kg",triglycerides,101 ± 5.06 mg/dL
Clc1ccc(-c2ccccc2)cc1,,"Sprague-Dawley rats, female, serum","inhalation, 23 µg/rat, 2 h after exposure",calcium,8 ± 2 mg/dL
C[C@@H](NC(=O)N1C(=O)[C@H](Cc2ccnc(N)c2)[C@H]1C(=O)O)C1CCCCC1,,healthy adult Chinese volunteers,"continuous intravenous infusion, 0.6 mg/kg/h, 5-day infusion, CTCAE 5.0 grading",incidence of urine leukocyte esterase positive,50%
CC(C)[C@@H]1NC(=O)CNC(=O)[C@H](CC(N)=O)NC(=O)[C@H](CCCNC(=N)N)NC(=O)[C@H](Cc2ccc(O)cc2)NC(=O)[C@H](C(C)C)NC(=O)[C@@H](NC(=O)[C@@H](NC(=O)[C@H](CC(N)=O)NC(=O)[C@H](Cc2c[nH]c3ccccc23)NC(=O)[C@H](C)NC(=O)[C@H](Cc2ccccc2)NC(=O)CN)C(C)C)CSSC[C@@H](C(=O)N[C@@H](Cc2c[nH]cn2)C(=O)N[C@@H](CCCNC(=N)N)C(=O)N[C@@H](CCCNC(=N)N)C(=O)N[C@@H](C)C(=O)N[C@@H](CC(N)=O)C(N)=O)NC(=O)[C@H](C(C)C)NC(=O)[C@H](CCCNC(=N)N)NC1=O,"circular dichroism, item: Parallel",PBS,"80 µM, pH 7.4, together with: LTA 1 µM",secondary structure content,3.09%
NCCCC[C@@H]1NC(=O)[C@@H](Cc2c[nH]c3ccccc23)NC(=O)[C@H](c2ccccc2)NC(=O)[C@@H]2C[C@@H](OC(=O)NCCN)CN2C(=O)[C@H](Cc2ccccc2)NC(=O)[C@H](Cc2ccc(OCc3ccccc3)cc2)NC1=O,,healthy human volunteers,600 µg twice daily,subjects with injection-site swelling,3%
CN1CCN(c2cccc3c2CCN(C(=O)/C=C/c2c(-n4cnnn4)ccc(Cl)c2F)[C@@H]3C(=O)Nc2ccc(C(=O)O)cc2)C(=O)C1,,healthy human subjects,"intravenous infusion, 1.5 mg/h, 2 h",deaths,0%
COc1ccc([C@@H](O)c2cc(-c3ncnc4cc(N5CCOCC5)ccc34)c(F)cc2Cl)nn1,,"patients, advanced solid tumours","oral, 200 mg twice daily, treatment-emergent, together with: avelumab",flatulence incidence,10%
O=c1nc(NO)ccn1[C@@H]1O[C@H](CO)[C@@H](O)[C@H]1O,,rat fetus dialysate,"1000 ng/mL, 6 h, 10 °C, high QC concentration, together with: molnupiravir",autosampler stability,99.2 ± 3.95%
C=CC(=O)N1CC[C@H](n2nc(C#Cc3cc(OC)cc(OC)c3)c3c(N)ncnc32)C1,,"human patients, all","oral, dose not given, QD regimen, adverse drug reaction","any adverse drug reaction, any grade",100%
Cc1c(COC(=O)[C@@H]2[C@H](/C=C(\Cl)C(F)(F)F)C2(C)C)cccc1-c1ccccc1 (racemic),item: CYP3A4,"human, age 6 months, recombinant human CYP3A4",0.1 µM,enzyme contribution to clearance,17.1%
c1cc(-c2ccc3ncnc(Nc4ncco4)c3c2)cc(N2C[C@H]3C[C@@H]2CO3)c1,,0.1 M phosphate buffer,"pH 7.4, 25 °C",thermodynamic solubility,6 µM
COc1ncccc1-c1cnn2ccc(N3CCN(C(=O)OC(C)C)CC3)nc12,,"mouse nerve ligation model, plasma","oral, 30 mg/kg, 120 min after last dose, repeat dosing day 5",drug concentration,5.9 µM
CC(C)CC(=O)OC[C@H]1O[C@@](C#N)(c2ccc3c(N)ncnn23)[C@H](O)[C@@H]1O,plasma protein binding,human plasma,"0.9 µM, time not given",recovery,102%
CC(=O)c1c(C)c2cnc(Nc3ccc(C4CCN(CCS(C)(=O)=O)CC4)cn3)nc2n(C2CCCC2)c1=O,,"human, dose-escalation trial, plasma","oral, 75 mg twice daily, day 1, single dose",Cmax,165 ng/mL
O=c1oc2c(O)c(O)cc3c(=O)oc4c(O)c(O)cc1c4c23,,BALB/c mice,"1000 mg/kg/day, 28 days, subacute toxicity study",liver weight,1.38 g
C[C@]1(CO)Cc2ncn(-c3ccc(C#N)c(Cl)c3)c2C(=O)O1,,"human, plasma","oral, 10 mg single dose, breakfast, high-fat, high-calorie, after",AUC(0-inf) adjusted geometric mean,2.4 µM·h
COc1cccc(Oc2ccccc2NC(=O)CNC(=O)c2cccc3ccccc23)c1,,"esterase-deficient SCID mice, male, blood","oral, 40 mg/kg/day, 14 days, toxicity study",hematocrit,39% and 42.4% and 41%
C[C@@H]1NC(=O)[C@H](CCCCNC(=O)CO/N=C/C(=O)NCCCC[C@@H]2NC(=O)[C@@H](Cc3ccccc3)NC(=O)[C@H](CC(=O)O)NC(=O)CNC(=O)[C@H](CCCNC(=N)N)NC2=O)NC(=O)CNC(=O)[C@@H]2CCCN2C(=O)[C@H](CCCCNC(=O)CO/N=C/C(=O)NCCCC[C@@H]2NC(=O)[C@@H](Cc3ccccc3)NC(=O)[C@H](CC(=O)O)NC(=O)CNC(=O)[C@H](CCCNC(=N)N)NC2=O)NC(=O)[C@H](CCCCNC(=O)CN2CCCNCCNCCCNCC2)NC(=O)[C@H](CCCCNC(=O)CO/N=C/C(=O)NCCCC[C@@H]2NC(=O)[C@@H](Cc3ccccc3)NC(=O)[C@H](CC(=O)O)NC(=O)CNC(=O)[C@H](CCCNC(=N)N)NC2=O)NC(=O)CNC(=O)[C@@H]2CCCN2C(=O)[C@H](CCCCNC(=O)CO/N=C/C(=O)NCCCC[C@@H]2NC(=O)[C@@H](Cc3ccccc3)NC(=O)[C@H](CC(=O)O)NC(=O)CNC(=O)[C@H](CCCNC(=N)N)NC2=O)NC1=O [copper-64 labelled],PET imaging,"mouse, U-87 MG tumour xenograft, kidney","intravenous, 24 h",tissue uptake,5.14 ± 0.95 %ID/g
O=c1ccc2ccc3occc3c2o1,three freeze-thaw cycles,rat plasma,"1000 ng/mL, -70 °C freeze",accuracy,94.8%
O=S(=O)(Nc1ccccc1)c1ccc(NC(=S)Nc2ccccc2)cc1,item: Glu,"male mouse, blood","oral, 80 mg/kg daily, 14 days",blood chemistry level,209 mg/dL
CC(C)c1nc(N(C)S(C)(=O)=O)nc(-c2ccc(F)cc2)c1/C=C/[C@@H](O)C[C@@H](O)CC(=O)O,,healthy human subjects,"oral, dose not given, study CL-0537 safety set",incidence of upper abdominal pain,0%
CCCCCCCC(=O)N[C@@H](CCCCN)C(=O)N[C@@H](CCCCN)C(=O)N[C@@H](C)C(=O)N[C@@H](CC(C)C)C(=O)N[C@@H](CCCCN)C(=O)N[C@@H](CC(C)C)C(=O)N[C@@H](C)C(=O)N[C@@H](CCCCN)C(=O)N[C@@H](CCCCN)C(=O)N1CCC[C@H]1C(=O)N[C@@H](CC(C)C)C(=O)N[C@@H](CCCCN)C(=O)N[C@@H](CC(C)C)C(=O)N[C@@H](CC(C)C)C(=O)N[C@@H](CCCCN)C(N)=O,,"mouse ICR CD1 female, whole blood","intravenous bolus, 10 mg/kg",volume of distribution,0.926 ± 0.637 L/kg
COc1cc2c(Oc3ccc4[nH]c(C)cc4c3F)ccnc2cc1OCC1(N)CC1,,paediatric recurrent refractory sarcoma,8 mg,grade 3 Hypothyroidism,0%
CO[C@H]1C[C@@H]2CC[C@@H](C)[C@@](O)(O2)C(=O)C(=O)N2CCCC[C@H]2C(=O)O[C@H]([C@H](C)C[C@@H]2CC[C@@H](OC(=O)NCCOCCOCCOCCOCCOCCOCCOCCOCCC(=O)N3CCc4cc(Cn5nc(-c6ccc7oc(N)nc7c6)c6c(N)ncnc65)ccc4C3)[C@H](OC)C2)C[C@@H](O)[C@H](C)/C=C(\C)[C@@H](O)[C@@H](OC)C(=O)[C@H](C)C[C@H](C)/C=C/C=C/C=C/1C,,patients with advanced solid tumours,"intravenous, 1.6 mg/3 mg weekly, grade ≥3",incidence of Diarrhea TEAE,0%

# A few entries again:
SMILES,assay,test system,setting,measurement,value
O=c1nc(NO)ccn1[C@@H]1O[C@H](CO)[C@@H](O)[C@H]1O,,rat fetus dialysate,"1000 ng/mL, 6 h, 10 °C, high QC concentration, together with: molnupiravir",autosampler stability,99.2 ± 3.95%
COc1cc2c(Oc3ccc4[nH]c(C)cc4c3F)ccnc2cc1OCC1(N)CC1,,paediatric recurrent refractory sarcoma,8 mg,grade 3 Hypothyroidism,0%
C[C@@H]1NC(=O)[C@H](CCCCNC(=O)CO/N=C/C(=O)NCCCC[C@@H]2NC(=O)[C@@H](Cc3ccccc3)NC(=O)[C@H](CC(=O)O)NC(=O)CNC(=O)[C@H](CCCNC(=N)N)NC2=O)NC(=O)CNC(=O)[C@@H]2CCCN2C(=O)[C@H](CCCCNC(=O)CO/N=C/C(=O)NCCCC[C@@H]2NC(=O)[C@@H](Cc3ccccc3)NC(=O)[C@H](CC(=O)O)NC(=O)CNC(=O)[C@H](CCCNC(=N)N)NC2=O)NC(=O)[C@H](CCCCNC(=O)CN2CCCNCCNCCCNCC2)NC(=O)[C@H](CCCCNC(=O)CO/N=C/C(=O)NCCCC[C@@H]2NC(=O)[C@@H](Cc3ccccc3)NC(=O)[C@H](CC(=O)O)NC(=O)CNC(=O)[C@H](CCCNC(=N)N)NC2=O)NC(=O)CNC(=O)[C@@H]2CCCN2C(=O)[C@H](CCCCNC(=O)CO/N=C/C(=O)NCCCC[C@@H]2NC(=O)[C@@H](Cc3ccccc3)NC(=O)[C@H](CC(=O)O)NC(=O)CNC(=O)[C@H](CCCNC(=N)N)NC2=O)NC1=O [copper-64 labelled],PET imaging,"mouse, U-87 MG tumour xenograft, kidney","intravenous, 24 h",tissue uptake,5.14 ± 0.95 %ID/g
